Measured values collected from several papers.
Lines come from different studies, so protocols differ. Numbers after ± are the reported error.
rep main protease: Replicase polyprotein 1ab, main protease (rep, Severe acute respiratory syndrome coronavirus 2, UniProt P0DTD1)
rep methyltransferase: Replicase polyprotein 1ab, methyltransferase (rep, Severe acute respiratory syndrome coronavirus 2, UniProt P0DTD1)
rep nsp13 helicase: Replicase polyprotein 1ab, nsp13 helicase (rep, Severe acute respiratory syndrome coronavirus 2, UniProt P0DTD1)
rep papain-like protease: Replicase polyprotein 1ab, papain-like protease (rep, Severe acute respiratory syndrome coronavirus 2, UniProt P0DTD1)

CNC(=O)C[C@H](Cc1ccc(F)cc1)NC(=O)[C@@H](Cc1ccc(Cl)cc1Cl)NC(=O)[C@@H](Cc1ccccc1C#N)NC(C)=O
IC50 (rep main protease; enzyme activity, inhibitor, fluorescence): > 50 µM

Cc1ccccc1NC(=S)N/N=C/c1ccc(O)cc1
IC50 (rep main protease; enzyme activity, inhibitor, FRET): 28.8 µM

O=C(Oc1cncc(Cl)c1)c1ccco1
IC50 (rep main protease; enzyme activity, inhibitor): 0.59 µM

CC(C)(C)c1ccc(C(=O)NOC(=O)OCc2ccccc2)cc1
IC50 (rep main protease; enzyme activity, inhibitor, FRET): 31.5 µM

COc1cc(C(=O)O)ccc1C1=NN(c2ccc(C#N)c(Cl)c2)C(C)C1 (centres unmarked)
IC50 (rep methyltransferase; enzyme activity, inhibitor): 20 µM

CC1=C(c2ccccc2)C1C(=O)NCc1nc(-c2ccc(F)cc2)no1 (centres unmarked)
IC50 (rep main protease; enzyme activity, inhibitor, FRET): 67 µM

CC(C)=CCc1c(O)cc(O)c2c(=O)cc(-c3ccc(O)cc3)oc12
IC50 (rep nsp13 helicase; ATPase activity; no nucleic acid): 24 µM

CC(=O)Nc1ccc(S(=O)(=O)NNc2ncnc3sccc23)cc1
IC50 (Replicase polyprotein 1ab, nsp3 macrodomain (rep, Severe acute respiratory syndrome coronavirus 2, UniProt P0DTD1); ADP-ribose binding, inhibitor, fluorescence polarization; Mac1 domain, SARS-CoV-2): 53.6 ± 7.4 µM

O=C(O)C[C@H](NC(=O)c1ccccc1[Se][Se]c1ccccc1C(=O)N[C@@H](CC(=O)O)C(=O)O)C(=O)O
IC50 (rep main protease; enzyme activity, inhibitor): 11.8 µM

Nc1nnc(SC2CC(=O)N(c3cccc4ccccc34)C2=O)s1 (centres unmarked)
IC50 (rep main protease; enzyme activity, inhibitor; 5 min preincubation): 2.41 ± 0.02 µM

Cc1nc(-c2cccnc2)sc1C(=O)Nc1ccccc1-c1cn2c(CN3CCOCC3)csc2n1
IC50 (rep main protease; enzyme activity, inhibitor): 85 µM

Cc1ccc(OCCN(C)C)cc1C(=O)N[C@H](C)c1cc(-c2cnn(C)c2)cc(-c2cnn(C)c2)c1
IC50 (rep papain-like protease; enzyme activity, inhibitor, FRET): 0.151 µM

CN1CCN(CCCNC(=O)C[C@H](Cc2ccc(F)cc2)NC(=O)[C@@H](Cc2ccc(Cl)cc2Cl)NC(=O)[C@H](N)Cc2ccccc2C#N)CC1
IC50 (rep main protease; enzyme activity, inhibitor, fluorescence): 0.03 µM

CCC(C(=O)Nn1cccc1)n1c(SCc2ccc(F)cc2)nc2ncccc21 (centres unmarked)
IC50 (rep papain-like protease; enzyme activity, inhibitor): 7.09 µM

CC(C)(C)c1ccc(N(C(=O)C(F)Cl)C(C(=O)Nc2ccc3ccncc3c2)c2cccnc2)cc1 (single isomer, unassigned)
IC50 (rep main protease; enzyme activity, inhibitor): 1.43 µM

N#Cc1ccccc1C[C@@H](N)C(=O)N[C@H](Cc1ccc(Cl)cc1Cl)C(=O)N[C@H](CC(=O)NC(N)=O)Cc1ccc(F)cc1
IC50 (rep main protease; enzyme activity, inhibitor, fluorescence): 1.8 µM

O=c1c2ccccc2sn1-c1ccccc1
IC50 (rep main protease; enzyme activity, inhibitor; 0 min preincubation): 0.17 ± 0.02 µM

CCOC(=O)Cn1[se]c2ccccc2c1=O
IC50 (rep main protease; enzyme activity, inhibitor): 0.201 µM

O=C(CCN(Cc1ccco1)C(=O)c1csc(Nc2ccccc2)n1)NCc1cccc(C(F)(F)F)c1
IC50 (rep main protease; enzyme activity, inhibitor, FRET): 140 µM

CC(C)C[C@H](NC(=O)c1cc2c(F)ccc(F)c2[nH]1)C(=O)N[C@@H](C[C@@H]1CCNC1=O)C(=O)c1nc2c(F)cccc2s1
IC50 (rep main protease; enzyme activity, inhibitor): 0.05 µM

O=C(C=Cc1ccc(O)c(O)c1)OC1CC(O)(C(=O)O)CC(OC(=O)C=Cc2ccc(O)c(O)c2)C1O (centres unmarked)
IC50 (rep main protease; enzyme activity, inhibitor, FRET): 4.74 ± 0.24 µM

Cc1ccc(OCCN(C)C)cc1C(=O)N[C@H](C)c1cc(-c2cnn(C)c2)cc(-c2ccn(C)n2)c1
IC50 (rep papain-like protease; enzyme activity, inhibitor, FRET): 0.122 µM

CCN1C(=O)CC[C@@H]1c1c(O)cc2c(c1O)C[C@@H](OC(=O)c1cc(O)c(O)c(O)c1)[C@@H](c1ccc(O)c(O)c1)O2
IC50 (rep main protease; enzyme activity, inhibitor): 46.7 µM

Nc1ncnc2c1ncn2[C@@H]1O[C@H](CSc2ccc(Cl)c(C(=O)O)c2)[C@@H](O)[C@H]1O
IC50 (Replicase polyprotein 1ab, nsp16 with nsp10 (rep, Severe acute respiratory syndrome coronavirus 2, UniProt P0DTD1); methyltransferase activity, inhibitor; 30 min, 30 °C, together with: SAM 10 µM): 0.021 µM

O=C(Nc1ccccc1)c1ccccc1[Se][Se]c1ccccc1C(=O)Nc1ccccc1
IC50 (rep main protease; enzyme activity, inhibitor; Mpro, with DTT): 209 µM

O=C(O)/C=C/c1ccc(O)c(O)c1
IC50 (rep main protease; inhibitor): 53.6 ± 0.89 µM

CCOC(=O)[C@H](C(C)C)n1[se]c2ccccc2c1=O
IC50 (rep main protease; enzyme activity, inhibitor): 0.0563 µM

Cc1oc2nc1C(=O)N[C@](C)(C(=O)NCCc1ccc(N(C)C)cc1)c1nc(c(C)o1)C(=O)N[C@](C)(C(=O)NCCc1ccc(N(C)C)cc1)c1nc(c(C)o1)C(=O)N[C@]2(C)C(=O)NCCc1ccc(N(C)C)cc1
IC50 (rep main protease; enzyme activity, inhibitor): 18.3 µM

C=CCC(NC(=O)C1CN(C(=O)C(CC(=C)C)NC(=O)C=C)CC1c1cccc(C(F)(F)F)c1)C(=O)NC (centres unmarked)
IC50 (rep main protease): > 100 µM

CCC1c2ccsc2CCN1C(=O)c1nnn(C2CCNCC2)c1C (racemic)
IC50 (rep main protease; enzyme activity, inhibitor): > 100 µM

Oc1cc(O)c2c(c1)OC(c1ccc(O)c(O)c1)C(OC1(c3ccc(O)c(O)c3)Oc3cc(O)cc(O)c3C(O)C1O)C2 (centres unmarked)
IC50 (rep methyltransferase; enzyme activity, inhibitor): 2.22 µM

O=C(Cn1nnc2ccccc21)Nc1ccccc1-c1cccs1
IC50 (rep main protease; enzyme activity, inhibitor): > 100 µM

CNc1nc(NC(CCO)c2ccccc2Cl)nc(N2CCN(C(=O)CCl)C(C(=O)NCCC(N)=O)C2)n1 (centres unmarked)
IC50 (rep main protease; enzyme activity, inhibitor): 0.44 µM

Cc1cncc(C(=O)N2CCC(=C3c4ccccc4CS(=O)(=O)c4ccccc43)CC2)c1
IC50 (rep main protease; enzyme activity, inhibitor): 0.012 µM

COc1cc(-c2oc3cc(O)cc(O)c3c(=O)c2O[C@@H]2O[C@H](CO[C@@H]3O[C@@H](C)[C@H](O)[C@@H](O)[C@H]3O)[C@@H](O)[C@H](O)[C@H]2O)cc(O)c1O
IC50 (rep main protease; enzyme activity, inhibitor; 63 min preincubation): 13.9 µM

CC(=O)N(c1ccc(C(C)(C)C)cc1)C(C(=O)NCCc1cccc(F)c1)c1cccnc1 (centres unmarked)
IC50 (rep main protease; enzyme activity, inhibitor): > 20 µM

CCN(CC)S(=O)(=O)c1ccc2nnn(OCc3ccccc3)c2c1
IC50 (rep main protease; enzyme activity, inhibitor): > 100 µM

O=C1CC(c2ccccc2)Oc2cc(O[C@@H]3O[C@H](CO)[C@@H](O)[C@H](O)[C@H]3O)ccc21 (some centres unmarked)
IC50 (rep nsp13 helicase; ATPase activity; no nucleic acid): > 30 µM

Nc1ncnc2c1ncn2[C@@H]1O[C@H](CSCCNC(=O)NCC2CCCCC2)[C@@H](O)[C@H]1O
IC50 (Replicase polyprotein 1ab, nsp14 (rep, Severe acute respiratory syndrome coronavirus 2, UniProt P0DTD1); nsp14 methyltransferase activity, inhibitor, radiometric SPA; 20 min, together with: 3H-SAM 250 nM, RNA 50 nM): 3.4 ± 1.4 µM

CC(=O)N[C@@H](Cc1ccc(O)cc1)C(=O)N[C@@H](CCCNC(=N)N)C(=O)N[C@@H](Cc1ccccc1)C(=O)NCCC(=O)N[C@@H](CCCNC(=N)N)C(=O)N[C@@H](CC(N)=O)C(=O)NCCC(=O)N[C@H](C(=O)N[C@@H](Cc1ccccc1)C(=O)NCCC(=O)N[C@@H](Cc1ccccc1)C(=O)N[C@@H](Cc1ccc(O)cc1)C(=O)NCCC(=O)N[C@H](C(=O)N[C@@H](CC(=O)O)C(N)=O)[C@@H](C)O)C(C)C
IC50 (rep main protease; enzyme activity, inhibitor): > 17 µM

CCC1CC(c2ccc(C(=O)O)cc2C)=NN1c1ccc(C#N)c(Cl)c1 (centres unmarked)
IC50 (rep methyltransferase; enzyme activity, inhibitor): 0.24 µM

Oc1ccc(/C=N/NC(=S)Nc2ccccc2)c(O)c1
IC50 (rep main protease; enzyme activity, inhibitor, FRET): 8.45 µM

[N-]=[N+]=N[C@]1(COP(=O)(O)OP(=O)(O)OP(=O)(O)O)O[C@@H](n2ccc(N)nc2=O)[C@@H](F)[C@@H]1O
IC50 (Replicase polyprotein 1ab, polymerase (rep, Severe acute respiratory syndrome coronavirus 2, UniProt P0DTD1); cell-free assay, inhibitor): 440 µM

N#Cc1ccccc1CC(N)C(=O)NC(Cc1ccc(Cl)cc1Cl)C(=O)NC(CC(=O)NCCCc1ccncc1)Cc1ccc(F)cc1 (centres unmarked)
IC50 (rep main protease; enzyme activity, inhibitor, fluorescence): 0.05 µM

CCc1cccc2c(C(=O)NC3CCN(C(=O)C(C)C)CC3)c[nH]c12
IC50 (rep main protease; enzyme activity, inhibitor): 6.45 µM

CCC(C(=O)Nc1ccccc1Cl)n1cccc2nc(SCc3ccc(F)cc3)nc1-2 (centres unmarked)
IC50 (rep papain-like protease; enzyme activity, inhibitor): 14.1 µM

Oc1cc(O)c2c(c1)OC(c1ccc(O)c(O)c1)C(OC1(c3ccc(O)c(O)c3)Oc3cc(O)cc(O)c3C(O)C1O)C2 (centres unmarked)
IC50 (rep papain-like protease; enzyme activity, inhibitor, fluorescence; pH 7.5): 2.4 µM

Repeated from above:
O=C(Cn1nnc2ccccc21)Nc1ccccc1-c1cccs1
IC50 (rep main protease; enzyme activity, inhibitor): > 100 µM

O=C(O)/C=C/c1ccc(O)c(O)c1
IC50 (rep main protease; inhibitor): 53.6 ± 0.89 µM

Oc1cc(O)c2c(c1)OC(c1ccc(O)c(O)c1)C(OC1(c3ccc(O)c(O)c3)Oc3cc(O)cc(O)c3C(O)C1O)C2 (centres unmarked)
IC50 (rep papain-like protease; enzyme activity, inhibitor, fluorescence; pH 7.5): 2.4 µM

Cc1ccc(OCCN(C)C)cc1C(=O)N[C@H](C)c1cc(-c2cnn(C)c2)cc(-c2cnn(C)c2)c1
IC50 (rep papain-like protease; enzyme activity, inhibitor, FRET): 0.151 µM

O=c1c2ccccc2sn1-c1ccccc1
IC50 (rep main protease; enzyme activity, inhibitor; 0 min preincubation): 0.17 ± 0.02 µM

CC(=O)N[C@@H](Cc1ccc(O)cc1)C(=O)N[C@@H](CCCNC(=N)N)C(=O)N[C@@H](Cc1ccccc1)C(=O)NCCC(=O)N[C@@H](CCCNC(=N)N)C(=O)N[C@@H](CC(N)=O)C(=O)NCCC(=O)N[C@H](C(=O)N[C@@H](Cc1ccccc1)C(=O)NCCC(=O)N[C@@H](Cc1ccccc1)C(=O)N[C@@H](Cc1ccc(O)cc1)C(=O)NCCC(=O)N[C@H](C(=O)N[C@@H](CC(=O)O)C(N)=O)[C@@H](C)O)C(C)C
IC50 (rep main protease; enzyme activity, inhibitor): > 17 µM
